Measured values of several laboratories.
Numbered parts are unrelated; each lists some results of a single study.

Study 1
Target: Interferon regulatory factor 7, full length, phosphomimetic (IRF7, Homo sapiens, UniProt Q92985, residues 1-503, S471D/S472D/S475D/S476D/S477D/S483D/S484D/S487D)
Technique: protein-binding microarray
Form: double-stranded DNA, one strand shown
Matrix: in vitro
Tested at: 2200 nM top
Setting: 60-bp whole probe
With: salmon DNA 0.4 mg/ml
Relative to: random background probes
Reading: higher = stronger binding
Constant ends, left off below: GCCTAGCAC … GTCTTGATTCGCTTGACGCTGCTG
Target sequence (chain): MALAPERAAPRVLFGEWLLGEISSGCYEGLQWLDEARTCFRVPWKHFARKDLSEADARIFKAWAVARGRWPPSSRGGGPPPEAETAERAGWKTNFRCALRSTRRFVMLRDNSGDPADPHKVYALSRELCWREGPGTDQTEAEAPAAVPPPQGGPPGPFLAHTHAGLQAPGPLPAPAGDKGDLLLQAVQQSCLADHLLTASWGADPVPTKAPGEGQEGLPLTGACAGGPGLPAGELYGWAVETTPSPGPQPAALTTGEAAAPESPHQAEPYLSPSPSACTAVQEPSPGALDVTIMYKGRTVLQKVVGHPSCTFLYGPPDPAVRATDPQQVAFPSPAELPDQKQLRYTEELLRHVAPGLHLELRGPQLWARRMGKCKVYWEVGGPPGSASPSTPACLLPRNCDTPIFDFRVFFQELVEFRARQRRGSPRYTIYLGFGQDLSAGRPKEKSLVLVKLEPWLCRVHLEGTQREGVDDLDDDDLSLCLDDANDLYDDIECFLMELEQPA
Sequence | fitted relative affinity
TTAGATTTCAGACTGGTTTAGTGCTAG | 0.0597 z-score
GACGGTATCCTTTTCCTGTCGTGCTAG | 2.26 z-score
TCATGAAGCGCTTCTCGAACTGTGCTA | 0.355 z-score
TTAGATTTAAGTTTCGATTAGTGCTAG | 5 z-score
TCACCTCTAACTTCCCAACTGTGCTAG | 1.71 z-score
TTAGATAACAGTTTCGATTAGTGCTAG | 4.66 z-score
TCAAGCCTCTGCATTCCCACTGTGCTA | 0.702 z-score
TTAGGTACCGGTTTCGGTTAGTGCTAG | 6.4 z-score
TTAGATATTGGGACTGGATTAGTGCTA | -0.473 z-score
AGATATCTGCACTCTCATGTGTGCTAG | 0.732 z-score
TCATCTATCAAAAATACAACTGTGCTA | -0.065 z-score
GTAGGTATCGACACTGGGTTAGTGCTA | -0.0992 z-score
TCATATTTAAGGCTAGGACTGTGCTAG | 0.0147 z-score
TTAGGTTTCGGCCTGGGTTAGTGCTAG | 2.96 z-score
GACGTTCTCAGTCTCGAGACGTGCTAG | 0.632 z-score
TTAGGACTGCTTCGCCTTTAGTGCTAG | 0.265 z-score
GACGATCTCAGAATCGAGACGTGCTAG | -0.196 z-score
GACAAACTGAGTCTCGAGACGTGCTAG | 0.00384 z-score
ATAGGTATCGGGACTGGGTTAGTGCTA | -0.276 z-score
TTAGAACTTGGGTTTCGATTAGTGCTA | 2.29 z-score
AGAAACTTGTATTTGTCCCTGTGCTAG | 0.784 z-score

Study 2
Target: Histone acetyltransferase KAT6A, winged helix 1, GST fusion (KAT6A, Homo sapiens, UniProt Q92794, residues 1-85)
Technique: protein binding microarray
Form: double-stranded DNA, one strand shown
Matrix: in vitro
Tested at: not given
Setting: 8-mer, flanks averaged, mean of 2 arrays, mostly near background
Relative to: not given
Reading: higher = stronger binding
Construct (chain): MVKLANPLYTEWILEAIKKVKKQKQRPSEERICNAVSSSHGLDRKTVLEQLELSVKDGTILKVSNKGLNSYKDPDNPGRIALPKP
Sequence | E-score
ACGGAGCG | 0.35
AATTTGTG | -0.214
AGTTCTCC | -0.0421
CTTTGTAA | -0.157
CTGTTTCC | -0.127
CAAGGGAG | -0.205
CCCCAACA | -0.255
ACCGAGCC | 0.0934
AGACTCAA | -0.168
GGGGTTAC | 0.198
ATTAAATA | -0.104
AACCCGTG | 0.274
ATAACAGC | 0.0207
GAGTAGGC | -0.111
GCTGCAGA | -0.137
GACGAGTC | -0.173
ACCCGAAC | 0.0412
GCCGGTCA | 0.24
AAGATGGT | -0.255

Study 3
Target: RNA binding protein fox-1 homolog 2, RRM domain, GST-SBP tag (RBFOX2, Homo sapiens, UniProt O43251-10, residues 100-194)
Technique: RNA Bind-n-Seq
Form: RNA
Matrix: in vitro
Tested at: 365 nM
Setting: natural RNA segment, single round, ends assumed
Relative to: no-protein control
Reading: higher = stronger binding
Residues (chain): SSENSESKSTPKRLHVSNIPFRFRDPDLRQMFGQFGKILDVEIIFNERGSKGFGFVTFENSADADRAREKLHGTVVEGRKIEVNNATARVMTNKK
Sequence | RBNS enrichment (R)
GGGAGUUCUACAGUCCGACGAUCGUACUCAGUGAUAAAGUUAGCCAGCUCCAGAUAUGCAUAAAGAGUCUAAAGGUUUCUAAGUGUAUCUUGCAAGAGAAUCUCCACUCCAGCAAUCACAGCUCAAAUUGUGGUGGAAUUCUCGGGUGCCAA | 0.666
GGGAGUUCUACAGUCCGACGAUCUGGCCGCGGGACUGAUGGGUGUCCUGGGUUCUUUAGCUCACCAGCACUUUGCGCUCAAUGGACUUUGUAAAUUCUCAUCAGCUGUUGUAGAAGUUCCUCUGCCUGGAGCUUGGAAUUCUCGGGUGCCAA | 3.52
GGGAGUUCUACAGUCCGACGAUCGUGCAGUUCUUGGGCCCAGCCUGGCCUUCGCCAUGAGUUUGGGGAGCGAGACCCCACCUGAGACAGGCAGUAGGAGCCUGUGCUGACCUUGGGGAAUCUGAGCUUUUCCAUGGAAUUCUCGGGUGCCAA | 0.254
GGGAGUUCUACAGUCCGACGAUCCAUUCACAGAGUAGCUGUGAGUUCUUGGUAAUGUGAAAAAGGCCUUGUUUUUCAGAAAUUCCUGGGUUUCCUGUUAAAAAAUCUUAAAGCCCAACCUUAGGAAUAUAGUGUGGAAUUCUCGGGUGCCAA | 0.828
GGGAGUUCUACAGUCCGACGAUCUAGAGUAGACUGGGCCAACAAGUCAACAAGUGGUGGCGUGUGCAAACGGGCUGCCCUAGUCAAGCCCAGUCCCUUCAACAGUAUGUCUGAUGCACCACAGGCCCUCCCUAUGGAAUUCUCGGGUGCCAA | 0.208
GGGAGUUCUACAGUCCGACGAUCCUGGGACCUGCAUCUGUGCUGGGGCCAGGGACUCUCCCACGCACGAGCUAGUGAGUGGCACACCAGAGCCAUCUGCAGGGAAGGGCGUGGCGGGGAAAUGGCUGUGCGGUUGGAAUUCUCGGGUGCCAA | 3.31
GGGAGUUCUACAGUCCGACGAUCUAAGUAAAAUCAUUGUUCCAUUCUUAUACAUUUGAAUGUGAUGGUGACCUUUGAAACAAUUCCAGGGGCAUUCUCAAGUAUUUGAUACCUAGGGGUUUAGUAACUCAGACUGGAAUUCUCGGGUGCCAA | 0.289
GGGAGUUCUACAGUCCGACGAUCACUGCCCCUUCAUUCGGGUCUCUAACAGCUCUCCAAGCUGGGUCAGCCACCACUGUGCUCGCUCCAACUGCGGGUAGCACAGGAGAGGAGGGACGGAUAAGGGCAGAUGUUGGAAUUCUCGGGUGCCAA | 0.268
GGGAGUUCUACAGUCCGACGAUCAGAAAGUCUCUUCUUCAUCACUGAAUUCAGUCACUUGGAGAUGACAACUUCAAAUGCUAACCCGAUGACCCCAGAAAACCGUGUGAGAUUCGUACCGAAGAACCUUGUGGUGGAAUUCUCGGGUGCCAA | 0.274
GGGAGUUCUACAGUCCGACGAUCGGAGCCCCCUCUGCCGGUCGGGCAGCCAGCAGAGGGGGAGUAGCCAAGCUGCUUGUCCUGGGCCUGCCCCUGUGUAUUCACCACCAAUAAAUCAGACCAUGAAACCAGUGUGGAAUUCUCGGGUGCCAA | 0.322
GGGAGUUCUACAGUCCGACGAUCAAACUCCUUAAUAUGAUCUGUGGAGAAUGUACACAGUUUAAACACAUCAAUAAAUACUUUAACUUCCACCGAGACUGCUCGUUUCACUGACUGCGGCAUUGAUCUGCGUGUGGAAUUCUCGGGUGCCAA | 5.63
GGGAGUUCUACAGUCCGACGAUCAACUGCCCAGGUGGAACAGCACGUAACCUAGUGAGUGACUGUACUCCUUUCUAGGAAUGCUGAUUCAGAGUGCACCUCUUUGACUAGGUCCCAGGAUCCCCUUGUCCCUGUGGAAUUCUCGGGUGCCAA | 1.36

Study 4
Target: Fragile X messenger ribonucleoprotein 1, C-terminal low-complexity region (Fmr1, Mus musculus, UniProt P35922)
Technique: RNA Bind-n-Seq
Form: RNA
Matrix: in vitro
Tested at: 200 nM
Setting: whole 134-nt RNA, ends assumed
With: 150 mM LiCl
Relative to: input library
Reading: higher = stronger binding
Library: 7-deaza-guanosine replaces G
Sequence | log2 enrichment
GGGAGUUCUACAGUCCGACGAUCAAGUCCUGUGCUACACAUCGUAUGUACCGAAUCGGGUUUGGGUUUGGGUUUUUGGGAAAGUAUUAUGUUACGCCGUUCGGAUCUGCACUUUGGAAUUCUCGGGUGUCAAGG | -1.62
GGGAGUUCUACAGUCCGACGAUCCCUGUGCUACACAUCGUAUGUACCGAAUCGGUUUUUUUGGUUUUUUUGGGGUUUUUUUGGGAAAGUAUUAUGUUACGCCGUUCGGAUCUGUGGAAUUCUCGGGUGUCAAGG | -1.03
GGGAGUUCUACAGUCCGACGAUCACCAUGCAGGUGGGCAUCUUUGGGAGGUGGGGCAAGGGGGGGAUAGGGAGGGGGGUAACACUUUGGGAACAGGUGGUCCCAGGUCGUUUCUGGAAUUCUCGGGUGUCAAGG | 1.18
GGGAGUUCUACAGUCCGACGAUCCUCAAGUCCUGUGCUACACAUCGUAUGUACCGAAUCGGCCGGCCGGGGCCGGGAAAGUAUUAUGUUACGCCGUUCGGAUCUGCACUUCCAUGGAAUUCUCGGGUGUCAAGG | 0.802
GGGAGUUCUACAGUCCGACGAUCCCUCAAGUCCUGUGCUACACAUCGUAUGUACCGAAUCGGGAGGGAGGGAGGGGAAAGUAUUAUGUUACGCCGUUCGGAUCUGCACUUCCAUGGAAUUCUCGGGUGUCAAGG | -1.35
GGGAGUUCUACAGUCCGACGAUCGCAGGAAGUAAAAACAAAUGGAAAUGCUUCGGAUAGUGGCAGGGGUGGGGGUUGCUAAGGAAAGGGUGGGAUGGGAGUGGGUAAAGAAUUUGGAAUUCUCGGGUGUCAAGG | 1.53
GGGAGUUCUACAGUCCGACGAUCUCCUGUGCUACACAUCGUAUGUACCGAAUCGGGAAAAAAGGGAAAAAAGGGAAAAAAGGAAAGUAUUAUGUUACGCCGUUCGGAUCUGCAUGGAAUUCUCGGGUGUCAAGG | -0.0413
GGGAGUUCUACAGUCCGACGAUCCAAGUCCUGUGCUACACAUCGUAUGUACCGAAUCGGGGAGGGGUGGGGUUUGGGGAAAGUAUUAUGUUACGCCGUUCGGAUCUGCACUUCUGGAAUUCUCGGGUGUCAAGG | -0.564
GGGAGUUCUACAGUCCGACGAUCUCAAGUCCUGUGCUACACAUCGUAUGUACCGAAUCGGGGAAGGGGAAGGAAGGGGAAAGUAUUAUGUUACGCCGUUCGGAUCUGCACUUCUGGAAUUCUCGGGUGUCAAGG | -0.741
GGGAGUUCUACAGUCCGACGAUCUCCUCAAGUCCUGUGCUACACAUCGUAUGUACCGAAUCGGGGAGGAGGAGGAAAGUAUUAUGUUACGCCGUUCGGAUCUGCACUUCCAGCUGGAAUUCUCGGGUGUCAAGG | -2.06
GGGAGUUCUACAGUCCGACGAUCCAAGUCCUGUGCUACACAUCGUAUGUACCGAAUCGGGCCCGGGCCCGGGGCCCGGGAAAGUAUUAUGUUACGCCGUUCGGAUCUGCACUUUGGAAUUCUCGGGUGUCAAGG | -2.71
